Experimental data collected from several papers.
Compare with care: the assays were run in different laboratories. Values joined by “and” are separate records of one study, mostly repeats; a detail may differ. ± gives the spread as reported.

SMILES | test | system | conditions | how to read | endpoint | result
CCC1CNC(CC)CN(C(C(=O)[O-])c2ccc(C(=O)[O-])cc2)C(CC)CN(CC(=O)[O-])C(CC)CN1.[Mn+2] (stereo not shown) | ICP-MS | BALB/c mouse, spleen | intravenous, 0.05 mmol/kg, 5 min, without anaesthesia |  | Mn content | 1.16 ± 0.23 µg/g
COc1ccc(Nc2nc(Nc3ccc(OCCOCCOCC[18F])cc3)ncc2Br)cc1 |  | ICR mice, S180 tumour | intravenous, 370 kBq, 60 min | baseline: tumour over muscle | uptake ratio | 1.54
CC(C)(O)c1ncc([S@](N)(=O)=NC(=O)Nc2c3c(cc4c2CCC4)CCC3)s1 | measured: nervous system disorders | healthy human subjects | oral, 100 mg, total |  | share of subjects with TEAEs | 17%
Cc1[nH]c(=O)c(CNC(=O)c2cc(Cl)c3c(c2C)O[C@@](C)([C@H]2CC[C@H](N(C)C)CC2)O3)c(C)c1O |  | human, plasma | oral, 200 mg, up to 0008 (unit not given) |  | share of plasma radioactivity | 1.1%
CCn1c(=O)c(-c2cc(NC(=O)Nc3ccccc3)c(F)cc2Br)cc2cnc(N)cc21 |  | human plasma | 4000 ng/mL, 1 months, -20 °C, high QC |  | long-term stability accuracy | -2.77%
Cc1c(Cc2cccc(OC(C)C(=O)O)c2)c2ccc(C(=O)NC(C)c3ccc(C(C)(C)C)cc3)cc2n1C (mixture of isomers) | metabolic stability | mouse, liver microsomes |  |  | half-life | 0.692 h
CC[C@H](C)[C@@H]1NC(=O)[C@H](Cc2ccc(O)cc2)NC(=O)CCCSC[C@@H](C(=O)N(CC(=O)N[C@@H](CC(C)C)C(=O)NCC(N)=O)Cc2ccc(F)cc2)NC(=O)[C@H](CC(N)=O)NC(=O)[C@H](CCC(N)=O)NC1=O |  | human, plasma | intranasal, 400 µg, single dose |  | Cmax | 0.163 ng/mL
CCCCN1C(=O)c2cccc3c(NCCN4CCOCC4)ccc(c23)C1=O |  | ethylene glycol |  |  | absorption maximum | 442 nm
COC(=O)Nc1ccc2nc(C(=N)N)ccc2c1.Cl |  | octanol/buffer | 67 µM, pH 7.4 |  | logD | -1.09
COC(=O)[C@@]1(C)C=C(C(=O)Nc2cccc(C(=O)Nc3ccc(Nc4nccc(-c5cccnc5)n4)c(C)c3)c2)C(=O)CC1 |  | rat Wistar male, plasma | 1 µM, 30 min |  | remaining compound | 18.9% and 20.1%
O=C(Nc1cnccc1-c1ccc([18F])cc1)c1ccnc(NC(=O)C2CC2)c1 | ex vivo gamma counting | GSK-3β transgenic mice, late-stage, blood | intravenous, 120 min, mean, P-gp inhibitor pretreatment, with: tariquidar 15 mg/kg iv |  | SUV | 0.71
CCCCN1C(=O)c2cccc3c(NCCCCCCCCN4CCOCC4)ccc(c23)C1=O |  | water | pH 6.0 |  | absorption maximum | 453 nm
CC[C@H](C)[C@H](NC(=O)[C@H](CCCCN)NC(C)=O)C(=O)N[C@@H](C)C(=O)N[C@@H](C)C(=O)N[C@@H](CC(C)C)C(=O)N[C@@H](CCCCN)C(=O)N[C@@H](CCC(=O)O)C(=O)N[C@@H](CCCCN)C(=O)N[C@H](C(=O)N[C@H]1CSCc2cccc(c2)CSC[C@@H](C(=O)N[C@@H](CCCCN)C(=O)N[C@H](C(=O)N[C@@H](C)C(=O)N[C@@H](C)C(=O)N[C@@H](CC(C)C)C(=O)N[C@@H](CCCCN)C(=O)N[C@@H](CCC(=O)O)C(=O)NCC(=O)N[C@@H](Cc2c[nH]c3ccccc23)C(N)=O)[C@@H](C)CC)NC(=O)[C@H](CCCCN)NC(=O)[C@H](CC(C)C)NC(=O)[C@H](C)NC1=O)[C@@H](C)CC | circular dichroism thermal melting | PBS | pH 7.4, single peptide 50 µM total |  | melting temperature | 20 °C
Cc1noc(C)c1Cn1cc(N2C(=O)CN(Cc3cccc(O[C@@H]4O[C@H](C(=O)O)[C@@H](O)[C@H](O)[C@H]4O)c3)C2=O)cn1 |  | Sprague-Dawley rat, male | oral, 10 mg/kg of parent drug, 0.25 h |  | plasma concentration | 2110 ng/mL
Cc1ccc(OCC(=O)N(Cc2cccs2)c2ccn[nH]2)cc1 |  | pooled human liver microsomes | 10 µM, 60 min, without NADPH | baseline: time 0 | remaining compound | 94.2%
CN1CCC[C@]1(C)/C=C/S(=O)(=O)NC(=O)Nc1c2c(cc3c1CCC3O)CCC2 (stereo partly shown) |  | human, plasma | oral, 50 mg twice daily of parent drug, day 1, metabolite of dosed drug |  | AUC(0-tau) | 227 µg·h/mL
CCCCN1C(=O)c2cccc3c(NCCCCCN4CCOCC4)ccc(c23)C1=O |  | methanol |  |  | absorption maximum | 443 nm
CN[C@H](CC(C)C)C(=O)N[C@H]1C(=O)N[C@@H](CC(N)=O)C(=O)N[C@H]2C(=N)N[C@H]3C(=O)N[C@H](C(=O)N[C@H](C(=O)NCCC[N+](C)(C)C)c4cc(O)cc(O)c4-c4cc3ccc4O)[C@H](O)c3ccc(c(Cl)c3)Oc3cc2cc(c3O[C@@H]2O[C@H](CO)[C@@H](O)[C@H](O)[C@H]2O[C@H]2C[C@](C)(NCc3ccc(-c4ccc(Cl)cc4)cc3)[C@H](O)[C@H](C)O2)Oc2ccc(cc2Cl)[C@H]1O |  | mouse | intravenous, 10 mg/kg |  | clearance | 0.76 mL/min/kg
CC(C)(C)[C@H](NC(=O)C(F)F)C(=O)N1C[C@H]2[C@@H]([C@H]1C(=O)N[C@H](C#N)C[C@@H]1CCCNC1=O)C2(C)C |  | human liver microsomes | scaled to liver |  | intrinsic clearance | 27.4 mL/min/kg
CSCC[C@H](N)C(=O)N[C@@H](CO)C(=O)N[C@H](C(=O)N[C@@H](C)C(=O)NCC(=O)N[C@@H](CC(C)C)C(=O)N[C@@H](CCCCN)C(=O)N[C@@H](CCCCN)C(=O)N[C@@H](CCC(N)=O)C(=O)N[C@@H](Cc1c[nH]c2ccccc12)C(=O)N[C@@H](Cc1c[nH]cn1)C(=O)N[C@@H](CCCCN)C(=O)N[C@@H](C)C(=O)N[C@H](C(=O)N[C@@H](CCC(N)=O)C(=O)N[C@@H](CCCCN)C(=O)N[C@H](C(=O)N[C@@H](CO)C(=O)N[C@@H](CCC(=O)O)C(=O)N[C@@H](CCCCN)C(=O)N[C@H](C(=O)NCC(=O)NCC(=O)N[C@@H](C)C(N)=O)C(C)C)C(C)C)[C@@H](C)O)C(C)C | circular dichroism | aqueous TFE | 50 µM, pH 7.4, 20 °C |  | TFE midpoint | 2.58 ± 0.03 M
O=C(Nc1cnccc1-c1ccc([18F])nc1)c1ccnc(NC(=O)C2CC2)c1 | ex vivo gamma counting | FVB/NJ mice, both sexes, left kidney | intravenous, 120 min |  | mean SUV | 0.324
C=C(NC(=O)c1csc(-c2nc3c(cc2O)-c2nc(cs2)C(=O)NC(C(C)O)C(=O)NC(=C(C)OC)c2nc(cs2)C(=O)NC2c4nc(cs4)C(=O)NC(COC(=O)c4c5c6c(cccc6n4O)COC(=O)C(OC4CC(C)(O)C(N(C)C)C(C)O4)C2OC5)c2nc-3cs2)n1)C(N)=O (stereo not shown) |  | ICR mice, Streptococcus pneumoniae ATCC 49169 infected, immunocompromised, blood | intravenous, 2 mg/kg/day twice daily |  | MRT(0-t) | 2.86 h

For quick reference, copied from above:
SMILES | test | system | conditions | how to read | endpoint | result
Cc1[nH]c(=O)c(CNC(=O)c2cc(Cl)c3c(c2C)O[C@@](C)([C@H]2CC[C@H](N(C)C)CC2)O3)c(C)c1O |  | human, plasma | oral, 200 mg, up to 0008 (unit not given) |  | share of plasma radioactivity | 1.1%
CCn1c(=O)c(-c2cc(NC(=O)Nc3ccccc3)c(F)cc2Br)cc2cnc(N)cc21 |  | human plasma | 4000 ng/mL, 1 months, -20 °C, high QC |  | long-term stability accuracy | -2.77%
